Measurements gathered from unrelated publications.
± marks the error that the study gave.
Target: Kappa-type opioid receptor (OPRK1, Homo sapiens, UniProt P41145)

SMILES | assay | system | setting | endpoint | value
COC(=O)[C@@H]1C=C(OC(=O)c2ccc3ccoc3c2)C(=O)[C@H]2[C@@]1(C)CC[C@H]1C(=O)O[C@H](c3ccoc3)C[C@]21C | forskolin-induced cAMP inhibition, agonist | CHO-K1 expressing human KOR | – | EC50 | > 10000 nM
CN1CC[C@]23c4c5ccc(O)c4O[C@H]2c2ncc(-c4ccc(Cl)cc4)cc2C[C@@]3(OCCCc2ccccc2)[C@H]1C5 | binding, [3H]diprenorphine displacement | CHO membranes | – | Ki | 9.4 ± 2.4 nM
O=C(Cc1ccc(Cl)c(Cl)c1)N1CCN[C@@H]2CCC[C@H](N3CCCC3)[C@H]21 | G protein activation, agonist | – | racemate | EC50 | 240 ± 86 nM
Oc1cccc2c1OC1CCCC3CN(CC4CC4)CCC231 (single isomer, unassigned) | partial agonist | – | – | EC50 | 2.3 ± 0.7 nM
N#Cc1cc(C(=O)N[C@@H]2CC[C@@]3(O)[C@H]4Cc5ccc(O)c6c5[C@@]3(CCN4CC3CC3)[C@H]2O6)ccn1 | agonist | CHO cell membranes | – | EC50 | 0.28 ± 0.03 nM
COC(=O)[C@@H]1C[C@H](OC(C)=O)C(=O)[C@H]2[C@@]1(C)CC[C@H]1C(=O)O[C@H](C(=O)c3ccco3)C[C@]21C | radioligand binding | – | together with: [3H]diprenorphine | Ki | > 1000 nM
COC(=O)[C@@H]1C=C(OC(=O)c2ccc(O)c(F)c2)C(=O)[C@H]2[C@@]1(C)CC[C@H]1C(=O)O[C@H](c3ccoc3)C[C@]21C | forskolin-induced cAMP inhibition, agonist | CHO-K1 expressing human KOR | – | EC50 | > 10000 nM
O=C(N[C@@H]1CC[C@@]2(O)[C@H]3Cc4ccc(O)c5c4[C@@]2(CCN3CC2CC2)[C@H]1O5)c1ccnc(Br)c1 | agonist | CHO cell membranes | – | EC50 | 0.34 ± 0.03 nM

Excerpt of the above:
SMILES | assay | system | setting | endpoint | value
Oc1cccc2c1OC1CCCC3CN(CC4CC4)CCC231 (single isomer, unassigned) | partial agonist | – | – | EC50 | 2.3 ± 0.7 nM
